Measured values gathered from unrelated publications.
Protocols differ between the studies behind these lines. Several values in a cell are separate wells, animals, samples, runs or records.
Target: Phosphatidylinositol 4-kinase beta (PI4KB, Homo sapiens, UniProt Q9UBF8)

SMILES | test | conditions | scale | quantity | result
Cc1ccc(-c2c(/C=C(\C#N)C(=O)NC(C)C)n(CCCO)c3ncnc(N)c23)cc1 | cell-free assay, competition with immobilised ligand | 1 µM |  | remaining binding | 100%
CNC1C[S+]2CC[S+]3CC[S+](C1)[Ru-4]321([N]=C=S)[n]2c3ccc(OC)cc3c3c4c(c5cc(F)c[n+]1c5c32)C(=O)NC4=O (stereo not shown) | KinomeScan | 0.1 µM | relative to: untreated | remaining binding | 79%
COc1cc(Nc2nccc(-c3cnn4nc(OC)ccc34)n2)cc(C(F)(F)F)c1 | binding, competition with immobilised ligand | 1 µM |  | remaining binding | 100%
Nc1ncc2c(n1)-c1c([nH]c3ccc(C4=CCOCC4)cc13)CCC2 | binding, competition with immobilised ligand | 1 µM |  | remaining binding | 78%
Cc1cccc(O[C@H]2CCC[C@@H](C(C)CNCc3ccncc3)C2)c1 (relative stereo) | enzyme activity, inhibitor | 1 µM |  | inhibition | 13%
C=CC(=O)N1Cc2nc(-c3cc(-c4cc(Cl)cnc4Cl)c(F)cc3F)n(-c3ccncn3)c2C1 | cell-free assay, inhibitor | 1 µM |  | inhibition | 8.8%
Cc1cnc2nc1Nc1cccc(c1)COC/C=C/COCc1cc(ccc1OCCN1CCOCC1)N2 | binding, competition with immobilised ligand | 0.1 µM |  | remaining binding | 91%
CC(C)=CC1OC(C)(C)C2C=C3C(=O)C(Cl)=CC(O)C3C3C(O)C4OC4C(=O)C132 (stereo not shown) | cell-free assay, competition with immobilised ligand | 10 µM |  | remaining binding | 83%
CNC(=O)C1CCN(c2cc(C)c(F)cc2NC(=O)c2ccc(-c3cc(O)ccc3C)c(C)c2)CC1 | binding, competition with immobilised ligand | 1 µM |  | remaining binding | 100%
C=CC(=O)N1CCc2ccc(-n3c(=O)ccc4cnc5ccc(-c6cnn(C)c6)cc5c43)cc21 | KINOMEscan | 1 µM | relative to: DMSO control | remaining binding | 100%
CN1CCN(Cc2ccc(-c3ccc(CO[C@H]4CCC[C@@H]4NC(=O)c4cc(-c5cnn(C)c5)cnc4N)cc3)cc2)CC1 | enzyme activity, inhibitor | 0.1 µM |  | inhibition | -13%
COc1cc(Nc2nc(C)cc(-c3cnn4nc(OC)ccc34)n2)cc(C(F)(F)F)c1 | inhibitor | 1 µM, PIK4CB | relative to: control | remaining activity | 85%
COc1c(Cl)cccc1Nc1c(-c2ccncc2C#C[C@@]2(C)CCCN2C(=O)/C=C/CN(C)C)[nH]c2c1C(=O)NCC2 | cell-free assay, competition with immobilised ligand | 3 µM |  | remaining binding | 64%
C=CC(=O)Nc1cccc(-c2cnc3[nH]cc(C(=O)NC(C)(C)C)c3n2)c1 | kinase activity | 0.1 µM |  | inhibition | 4% and 2%
CCN1CCN(Cc2ccc(C(=O)Nc3ccc(C)c(NCc4cnc5[nH]ccc5c4OC)c3)cc2C(F)(F)F)CC1 | binding, competition with immobilised ligand | 1 µM |  | remaining binding | 42%
C=CC(=O)N1CCCC(n2c(=O)c3ncccc3n(Cc3ccc(Oc4ccccc4)cc3)c2=O)C1 (stereo not shown) | cell-free assay, competition with immobilised ligand | 1 µM |  | remaining binding | 59%

Some of these lines once more:
SMILES | test | conditions | scale | quantity | result
Cc1ccc(-c2c(/C=C(\C#N)C(=O)NC(C)C)n(CCCO)c3ncnc(N)c23)cc1 | cell-free assay, competition with immobilised ligand | 1 µM |  | remaining binding | 100%
CC(C)=CC1OC(C)(C)C2C=C3C(=O)C(Cl)=CC(O)C3C3C(O)C4OC4C(=O)C132 (stereo not shown) | cell-free assay, competition with immobilised ligand | 10 µM |  | remaining binding | 83%
C=CC(=O)N1CCCC(n2c(=O)c3ncccc3n(Cc3ccc(Oc4ccccc4)cc3)c2=O)C1 (stereo not shown) | cell-free assay, competition with immobilised ligand | 1 µM |  | remaining binding | 59%
